# Experimental data of several laboratories.
# A part holds a random share of what one study measured. Positions count from the first letter of the parent shown.

# Study 1
# Target: Histone acetyltransferase KAT6A, winged helix 2, GST fusion (KAT6A, Homo sapiens, UniProt Q92794, residues 85-181)
# Technique: protein binding microarray
# Molecule type: double-stranded DNA, one strand shown
# Sample: in vitro
# Concentration: not given
# Notes: 8-mer, flanks averaged, mean of 2 arrays, mostly near background
# Relative to: not given
# Direction: higher = stronger binding
# Residues (chain): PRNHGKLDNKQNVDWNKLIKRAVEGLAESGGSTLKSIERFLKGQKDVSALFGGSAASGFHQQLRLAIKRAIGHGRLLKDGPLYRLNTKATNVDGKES
Oligonucleotide,E-score
CGAGCCGC,0.13
GGGTCTAA,0.0254
TACATCGA,-0.133
CAGCGAAC,0.106
CATACATC,0.00165
AAGATAGA,-0.1
CAAATAGA,-0.0423
GCTGGGTA,0.0396
ATCCAGTA,-0.245
ACCAACCC,-0.00101
TAACGGTA,-0.132
AGATTTTC,0.0576
GCTTCTGA,0.0859
AATATAAA,0.147
CAGAGTGC,0.0201
CTCCTCAA,-0.041
AGTCTAAC,-0.235
AACCCACA,0.0863
CGTCCAGC,0.1

# Study 2
# Target: ABI1, truncated, D143A, DHFR fusion (Arabidopsis thaliana)
# Technique: DHFR PCA, deep sequencing
# Sample: yeast
# Notes: methotrexate growth selection, single substitutions
# Together with: (+)-ABA 0 µM
# Relative to: wild-type fitted maximum
# Direction: higher = stronger binding
# Starting sequence: PYL1, truncated, DHFR fusion (Arabidopsis thaliana); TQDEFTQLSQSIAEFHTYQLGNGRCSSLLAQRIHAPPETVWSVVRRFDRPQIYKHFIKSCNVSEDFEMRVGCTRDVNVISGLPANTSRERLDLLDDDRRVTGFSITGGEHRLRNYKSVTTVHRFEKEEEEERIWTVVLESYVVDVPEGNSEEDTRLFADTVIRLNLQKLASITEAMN; partner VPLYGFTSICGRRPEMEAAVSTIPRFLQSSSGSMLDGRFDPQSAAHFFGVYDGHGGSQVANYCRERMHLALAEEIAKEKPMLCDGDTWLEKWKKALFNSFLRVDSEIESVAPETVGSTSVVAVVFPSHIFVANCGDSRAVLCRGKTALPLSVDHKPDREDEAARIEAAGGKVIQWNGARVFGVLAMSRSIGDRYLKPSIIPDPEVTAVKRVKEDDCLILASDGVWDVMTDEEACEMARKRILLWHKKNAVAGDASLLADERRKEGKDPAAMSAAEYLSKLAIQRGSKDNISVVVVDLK
Substitution,relative binding score
Q51P,-5.35%
S26H,10.2%
F124R,3%
P36Y,3.09%
I52K,20.3%
G23E,1.52%
L94V,2.43%
A170H,-9.47%
L166I,4.04%
T6W,27.9%
D75Y,27.2%
N85V,60%
T1L,32.1%
H55L,15.5%
V136N,-2.22%
T106M,40.9%

# Study 3
# Target: RNA binding protein fox-1 homolog 2, RRM domain, GST-SBP tag (RBFOX2, Homo sapiens, UniProt O43251-10, residues 100-194)
# Technique: RNA Bind-n-Seq
# Molecule type: RNA
# Sample: in vitro
# Concentration: 365 nM
# Notes: natural RNA segment, single round, ends assumed
# Relative to: no-protein control
# Direction: higher = stronger binding
# Construct (chain): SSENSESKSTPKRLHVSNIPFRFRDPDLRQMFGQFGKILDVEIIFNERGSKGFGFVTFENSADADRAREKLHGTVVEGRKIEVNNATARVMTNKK
Oligonucleotide,RBNS enrichment (R)
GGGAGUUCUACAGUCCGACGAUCCCUCACGCAGUUCGACUGGGAAAAUACAGAAGGGCUGCAGAGGCAAUAAGAAGGAAGAAAGGGAAGUCCACGGCAGGCAAAGGGUGUGGCUGGCUCUCUGAACAUCAGGAUGGAAUUCUCGGGUGCCAA,0.701
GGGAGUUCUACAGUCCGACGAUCAGGGUCACAUACAUCCAACUUCACCACUUGGCUGCUUGAGAUUGGUUCUGCUCUUUUCUUCAUUUCUUUCCAGAACAACUCUUUCCCACCCCAACACCACUGCCACCACCUGGAAUUCUCGGGUGCCAA,0.7
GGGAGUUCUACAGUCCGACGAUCGCCCAGGGGACCCUGGUGGAUUUAGGGACUGUCCCCUCCCAUACUCCAAUAGAGGCCUAUCCUGACUAGAGAAGACUGGUGAGGGUUGAUACGGGAUUUGAAUUCCCAGAUGGAAUUCUCGGGUGCCAA,0.315
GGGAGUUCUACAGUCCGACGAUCAAAGAUUUGUAUCCUGGCCUGUUUAUUCAGGUGGGAGAUGUUCUGUAUAAUUUUGAGGUAUAGCUUGAACUCCUAGAACAAGAGUUAAAAGUUCUUUUUAGCUCAUUCACUGGAAUUCUCGGGUGCCAA,0.269
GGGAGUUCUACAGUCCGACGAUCUGCACUAAUGCACCCCUGUGAGGGACCCCCCAUGGCGAGGGCCUCUGCCUCUGACACACCCUUCUCGCUGCCCUGAGCCCCGGAGGCAGCCAUGGGAGGCAGCCUGCAUAUGGAAUUCUCGGGUGCCAA,0.85
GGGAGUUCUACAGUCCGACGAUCCAUGGUAGUGUUUCUUAUUUAUUUGGUUGCUGCUAAGCCUUGACAGUGGUUCACCUUCCUGGGCUGUCCCCAGUGGUCACGUCCUGCCUGGCUUCCUACUUGGGUAUAGCUGGAAUUCUCGGGUGCCAA,0.259
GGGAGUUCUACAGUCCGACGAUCGUAAGUUCAUGUAUAUAAUAUGUUUACAUGUUUCACUUUGAACUGAAAGCUACUCAAAGCCAGCCGUAAGUCUAUGGUAGAAUGUGAUGGAACAUGUUGGUGGAAGCUUGUGGAAUUCUCGGGUGCCAA,2.3
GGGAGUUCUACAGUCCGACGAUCUCCGCGCCCAUUGGUGACCCUUCCAGGCAGACAGCCUCAGCAGCGCCCCUGGUGGACAGGAUGGUUCGGCAAAGCAGCCUGAGUUAUUUUUGUGGACGGAAUCGGAACACUGGAAUUCUCGGGUGCCAA,0.231
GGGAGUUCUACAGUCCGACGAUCAGAGUCUUUAGAGAUUUGUUCACUCUCUGAGGGAUCCUCCUGGCUCUGCUUACAUACUUCCAGGGACGGUGAGCUCACGCUCUCUCCGGGCAGCCCUGUGAGUUUCCUAUUGGAAUUCUCGGGUGCCAA,0.214
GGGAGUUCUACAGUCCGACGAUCUUUGUUUUGGUAAGCUGUCCUCCAGGAUCAGCACUGCCUGUGAAUACUUUGAACUGUCUCCUGCUUACAGGGGUGUAAUGGUUUCCUUUGACUAGAAGUCUAUUUGUGUUUGGAAUUCUCGGGUGCCAA,0.438
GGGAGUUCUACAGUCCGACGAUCUUUUAGUGCUAAAAGGCUUUUAUAAAUUAUAAUAAGCCUCAGGAAGAAGCAAGCCUCUUACAUAUUAGGAAAAUACCUGAAAAGUUAGUUCAUUUGUCAGAUCCAGUUUUUGGAAUUCUCGGGUGCCAA,0.601
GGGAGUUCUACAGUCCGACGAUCUGUGGAACGAAGAGGAUGGGGAAAAGGCAGAGGGCACUGAGUGUCCCUUUAAAAACUAACCCACUGAAUAUUCCGUGUGAUCUAGAACAGUGUGGCAGCUUUCACAGCACUGGAAUUCUCGGGUGCCAA,0.44

# Study 4
# Target: PABPC1L2, full length, GST fusion (mouse, UniProt A0ABA7IW68)
# Technique: RNAcompete
# Molecule type: RNA
# Sample: in vitro
# Concentration: 20 nM
# Notes: 7-mer, probes averaged, single round
# Relative to: mean of 7-mers
# Direction: higher = stronger binding
# Target sequence (chain): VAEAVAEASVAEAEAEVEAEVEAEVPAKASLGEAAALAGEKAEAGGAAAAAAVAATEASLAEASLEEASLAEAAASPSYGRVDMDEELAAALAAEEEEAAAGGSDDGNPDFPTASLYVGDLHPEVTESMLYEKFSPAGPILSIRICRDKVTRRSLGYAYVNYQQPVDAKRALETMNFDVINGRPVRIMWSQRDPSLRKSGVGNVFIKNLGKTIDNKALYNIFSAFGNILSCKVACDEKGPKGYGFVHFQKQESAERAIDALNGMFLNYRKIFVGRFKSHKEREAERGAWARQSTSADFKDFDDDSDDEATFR
Oligonucleotide,7-mer Z-score
UGACUUA,-0.249
UUGCGCG,-0.255
UCGAGCA,-0.133
GCAAGUU,-0.153
UUGAAGA,-0.0826
UUGCCAG,-0.277
CUUGAGU,-0.233
CAAAGUU,0.187
UAUACUG,-0.329
ACGAGAC,0.162
UAGGAGG,0.215
UGUGUAA,-0.209
GGCCCGU,-0.128
AAGGCCG,0.0932
AGGAAAA,3.42
UACAAGA,-0.0482
AACGACA,0.338
GAACUGG,0.0968
CGGUUGA,-0.202
GCUCCUG,-0.179
GUAGAAA,1.94
UACUUGG,0.0841

# Study 5
# Target: CCNF, cyclin fold, Cln2 fusion (human)
# Technique: yeast growth competition, sequencing
# Sample: yeast
# Notes: strong parent motif
# Relative to: not given
# Direction: higher = stronger binding
# Starting sequence: ITGB3BP docking peptide (human); MPVKRSLKLDGLL; partner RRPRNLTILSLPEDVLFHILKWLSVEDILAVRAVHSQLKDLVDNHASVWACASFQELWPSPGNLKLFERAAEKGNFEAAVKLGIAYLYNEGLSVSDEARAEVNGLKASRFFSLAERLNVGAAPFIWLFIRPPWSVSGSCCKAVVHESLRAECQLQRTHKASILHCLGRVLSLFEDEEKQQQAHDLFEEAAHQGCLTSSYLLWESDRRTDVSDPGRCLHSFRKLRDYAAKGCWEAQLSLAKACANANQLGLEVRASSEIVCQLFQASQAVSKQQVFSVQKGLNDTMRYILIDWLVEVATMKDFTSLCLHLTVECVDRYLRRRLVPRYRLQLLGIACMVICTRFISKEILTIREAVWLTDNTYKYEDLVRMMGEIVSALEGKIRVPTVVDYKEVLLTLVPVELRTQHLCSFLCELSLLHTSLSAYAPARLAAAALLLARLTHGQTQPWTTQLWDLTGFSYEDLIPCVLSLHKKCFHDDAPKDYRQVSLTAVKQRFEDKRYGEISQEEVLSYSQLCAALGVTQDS
Substitution,normalised enrichment score
V3A,5.11
R5K,0.879
M1A,3.35
R5K L9F,4.35
S6A,6.04
P2A,5.98
L13A,5.42
R5A L7A,0.255
D10A,1.74
L9A,0.934

# Single results of other studies
# Histone H2B type 1-C/E/F/G/I: Histone H2B type 1-C/E/F/G/I (Homo sapiens, UniProt P62807)
# HNRNPU: HNRNPU (Homo sapiens, UniProt Q00839)
Molecule,target or system,test,test system,conditions,scale,endpoint,result
"Histone H2A type 1-B/E (Homo sapiens, UniProt P04908)",Histone H2B type 1-C/E/F/G/I,cross-linking MS,,hits only,,interaction screen,cross-linked
"PhoQ, residues 284 288 289 292 302 303 AEGLLW","PhoP, residues 12 14 15 18 19 SQCLL (Escherichia coli, UniProt P23836)","Sort-seq, item: YFP reporter",E. coli,"PhoQ-PhoP variant library, together with: 10 µM Mg2+","relative to: high Mg2+ state, higher = stronger signaling",fold induction,11.8
"H2AC7 (Homo sapiens, UniProt P20671)",Histone H2B type 1-C/E/F/G/I,cross-linking MS,,hits only,,interaction screen,cross-linked
"PPP1R12A (Homo sapiens, UniProt O14974)",HNRNPU,cross-linking MS,cell fractions,together with: DSSO,,cross-linked residues,S292 to K489
"GART (Homo sapiens, UniProt P22102)",HNRNPU,cross-linking MS,cell fractions,together with: DSSO,,cross-linked residues,K251 to K331

# For quick reference, copied from above (study 4):
Oligonucleotide,7-mer Z-score
UACAAGA,-0.0482
AACGACA,0.338
GAACUGG,0.0968
CGGUUGA,-0.202
GCUCCUG,-0.179
GUAGAAA,1.94
